# Published values collected from several papers.
# Each numbered part is a random draw from the data of one study; scales do not carry over between parts. Substitutions count along the parent as printed.

# Sample 1 — method: RNA Bind-n-Seq; molecule type: RNA; sample: in vitro; concentration: 200 nM; notes: whole 134-nt RNA, ends assumed; added: 150 mM LiCl; baseline: input library; reading: higher = stronger binding; all molecules: 7-deaza-guanosine replaces G
# Target: Fragile X messenger ribonucleoprotein 1, C-terminal low-complexity region (Fmr1, Mus musculus, UniProt P35922)
Strand,log2 enrichment
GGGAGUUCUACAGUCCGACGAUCCAAGUCCUGUGCUACACAUCGUAUGUACCGAAUCGGGGCCGGGGCCGGGGCCGGGAAAGUAUUAUGUUACGCCGUUCGGAUCUGCACUUCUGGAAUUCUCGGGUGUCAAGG,-0.25
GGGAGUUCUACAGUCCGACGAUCCACAGACAACACGCACCCACAAAGACACAGAGGGAAGGGGUUGGGAUGGGGACAGGGUGCACAGCAGGGCGGGGUAGGACCCCAGCCCCUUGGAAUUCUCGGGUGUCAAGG,0.302
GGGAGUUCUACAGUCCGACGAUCAGUCCUGUGCUACACAUCGUAUGUACCGAAUCGGGGUUUUUUUGGGGUGGGGAGGGGAAAGUAUUAUGUUACGCCGUUCGGAUCUGCACUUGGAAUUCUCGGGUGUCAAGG,0.364
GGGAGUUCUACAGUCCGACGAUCCAAGUCCUGUGCUACACAUCGUAUGUACCGAAUCGGUUUUGGGUUUUGGGUUUUGGAAAGUAUUAUGUUACGCCGUUCGGAUCUGCACUUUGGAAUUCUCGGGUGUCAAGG,-1.88
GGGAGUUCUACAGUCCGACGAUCAGUCCUGUGCUACACAUCGUAUGUACCGAAUCAAACCCCCAAACCCAAACCCCCAAAAAAGUAUUAUGUUACGCCGUUCGGAUCUGCACUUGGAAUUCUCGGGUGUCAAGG,-0.298
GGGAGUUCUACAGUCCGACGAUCAGUCCUGUGCUACACAUCGUAUGUACCGAAUCGGGUUUUGGGGUUUUGGGUUUUGGGAAAGUAUUAUGUUACGCCGUUCGGAUCUGCACUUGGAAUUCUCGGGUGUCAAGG,-1.62
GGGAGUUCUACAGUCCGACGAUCUGGCCCUGGUGGCAUGCGGGGAGGAAGAGGUGGCCUCAUGGAUCGUGGUGGUCCCGGUGGAAUGUUCAGAGGAGGCCGUGGUGGAGACAGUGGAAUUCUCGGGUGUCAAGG,-0.462
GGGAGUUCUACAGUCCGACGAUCUUUUCAAGGGGGCCCCAACUGGGGCCGCCUUGUAGCCUUCUUUGUCUUUGGGGCUGCACUGUGUGCUGAGAGUGUCAACAAGGAGAUGGAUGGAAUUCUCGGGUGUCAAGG,-1.43
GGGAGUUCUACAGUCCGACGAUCCUCAAGUCCUGUGCUACACAUCGUAUGUACCGAAUCGGGUGGGAGGGUUUGGGAAAGUAUUAUGUUACGCCGUUCGGAUCUGCACUUCCAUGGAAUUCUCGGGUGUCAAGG,-0.354
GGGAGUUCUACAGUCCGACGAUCUGGCCCUGGUGGCAUGCGGGGAGGAAGAGGUGGCCUCAUGGAUCGUGGUGGUCCCGGGGGAAUGUUCAGAGGUGGCCGUGGUGGAGACAGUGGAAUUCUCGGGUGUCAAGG,-0.762
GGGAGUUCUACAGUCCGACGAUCCUCAAGUCCUGUGCUACACAUCGUAUGUACCGAAUCGGAAAAAGGUGGUUUGGAAAGUAUUAUGUUACGCCGUUCGGAUCUGCACUUCCAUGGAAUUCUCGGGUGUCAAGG,-0.697

# Sample 2 — method: DHFR PCA, deep sequencing; sample: yeast; added: (+)-ABA 0.0091 µM; baseline: wild-type fitted maximum; reading: higher = stronger binding
# Target: ABI1, truncated, D143A, DHFR fusion (Arabidopsis thaliana)
# Notes: methotrexate growth selection, single substitutions
# Starting sequence: PYL1, truncated, DHFR fusion (Arabidopsis thaliana); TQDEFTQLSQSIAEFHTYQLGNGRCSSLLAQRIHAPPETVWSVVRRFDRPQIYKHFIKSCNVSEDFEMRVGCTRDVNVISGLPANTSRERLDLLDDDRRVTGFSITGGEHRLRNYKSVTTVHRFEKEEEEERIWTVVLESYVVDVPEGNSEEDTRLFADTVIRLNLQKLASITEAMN; partner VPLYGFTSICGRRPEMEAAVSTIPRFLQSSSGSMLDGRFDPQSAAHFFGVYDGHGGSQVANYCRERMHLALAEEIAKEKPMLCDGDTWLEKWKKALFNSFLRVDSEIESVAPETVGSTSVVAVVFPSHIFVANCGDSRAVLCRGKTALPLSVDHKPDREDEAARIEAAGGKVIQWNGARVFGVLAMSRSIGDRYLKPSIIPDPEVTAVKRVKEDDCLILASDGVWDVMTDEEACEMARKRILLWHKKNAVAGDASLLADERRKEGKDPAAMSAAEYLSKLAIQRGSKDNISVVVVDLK
Change,relative binding score [%]
H122L,-1.89
D96N,2.97
I33A,1.08
D48F,6.52
E152H,4.68
F124A,6.23
D3A,26.3
Y115L,-0.353
N77D,29.9
V136A,-4.08
I79H,21.7
E130R,26.1
Q7V,25
L169K,-2.09
V137Q,0.961
D96A,-4.26
E64H,25.6
I52S,7.1
E147I,10.3
G21N,9.71
T6P,51.6
K126R,34.1
G108A,-3.41
S9W,17.1
R69G,14.6

# Sample 3 — method: protein binding microarray; molecule type: double-stranded DNA, one strand shown; sample: in vitro; concentration: not given; baseline: not given; reading: higher = stronger binding
# Target: Histone acetyltransferase KAT6A, winged helix 1, GST fusion (KAT6A, Homo sapiens, UniProt Q92794, residues 1-85)
# Notes: 8-mer, flanks averaged, mean of 2 arrays, mostly near background
# Construct (chain): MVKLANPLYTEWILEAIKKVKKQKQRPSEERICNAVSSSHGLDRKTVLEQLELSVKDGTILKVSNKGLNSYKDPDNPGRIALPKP
Strand,E-score
GTAAGTGA,-0.0936
ACCGGGAA,0.252
CATTCTAG,-0.179
TCGGATAA,0.0254
ACACCACA,-0.239
GGTCGCAA,0.126
CCGTAGAG,0.11
AGTATTAA,-0.129
GGGGCTAC,-0.00509
CCTTTCTA,0.0814
AAATGCGT,0.163
ATACTTGC,0.099
GCCCGCAC,0.311
CTTAACTC,-0.241
AGGGCGGG,0.309
GGTCGATA,-0.0351
AATGCTAG,-0.0761
ACAGATGA,-0.279
CATGAGGA,-0.0837

# Sample 4 — method: protein-binding microarray; molecule type: double-stranded DNA, one strand shown; sample: in vitro; concentration: 250 nM; notes: 60-bp whole probe; added: salmon DNA 0.4 mg/ml; baseline: random background probes; reading: higher = stronger binding; shared flanks, not repeated: GCCTAGCAC … GTCTTGATTCGCTTGACGCTGCTG
# Target: Interferon regulatory factor 7, full length, phosphomimetic (IRF7, Homo sapiens, UniProt Q92985, residues 1-503, S101K/S471D/S472D/S475D/S476D/S477D/S483D/S484D/S487D)
# Chain of UniProt Q92985 (whole entry, unmodified, looked up): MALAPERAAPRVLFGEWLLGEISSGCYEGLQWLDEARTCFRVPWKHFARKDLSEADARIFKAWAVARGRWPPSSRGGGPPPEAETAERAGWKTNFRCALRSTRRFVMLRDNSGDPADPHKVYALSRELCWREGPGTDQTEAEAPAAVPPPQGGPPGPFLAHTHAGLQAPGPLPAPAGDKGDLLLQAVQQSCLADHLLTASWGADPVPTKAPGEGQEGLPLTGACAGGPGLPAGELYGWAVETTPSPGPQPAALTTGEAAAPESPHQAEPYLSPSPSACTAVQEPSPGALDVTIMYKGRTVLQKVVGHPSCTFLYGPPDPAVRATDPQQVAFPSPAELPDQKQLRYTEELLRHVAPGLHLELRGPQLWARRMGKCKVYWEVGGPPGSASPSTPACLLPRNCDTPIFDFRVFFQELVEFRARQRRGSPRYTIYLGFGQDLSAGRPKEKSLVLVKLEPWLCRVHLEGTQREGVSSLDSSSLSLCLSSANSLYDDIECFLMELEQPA
Strand,log fluorescence
TCAATTTCCACTTTCTTACTGTGCTAG,2.63 z-score
GACGATCCCAGTCTCGAGACGTGCTAG,0.626 z-score
ACCATTTTGTTTTTCATTATGTGCTAG,1.58 z-score
GACGTACTGCTTATCCTGACGTGCTAG,0.0384 z-score
TTAGGTTTCCTACTGCCTTAGTGCTAG,1.06 z-score
TTAGGTCTCCTTATCGTTTAGTGCTAG,0.499 z-score
ATTTTTTAGCTTCTCAATTAGTGCTAG,0.742 z-score
TAATATATATATTGTTAGTGTGTGCTA,0.378 z-score
AGTGTTATAATATTATTGCAGTGCTAG,-0.115 z-score
TCTTTTTTTTCTTTAAAAGTGTGCTAG,1.3 z-score
TCATTTTTCACTATTGCACTGTGCTAG,1.37 z-score
TCATAATTCTTTGCTCATACTGTGCTA,0.398 z-score
GACGGACTGGGGTTTCGAGACGTGCTA,1.67 z-score
GACGGGATCGGTATCGGGACGTGCTAG,0.277 z-score
TTCGGTTTCGGTATCGGTTAGTGCTAG,10.9 z-score
GACGGTATCGTTCTCGGGACGTGCTAG,0.801 z-score
GACGGTTTCGGACGGGGGACGTGCTAG,3.14 z-score
TCATGTTTATGTCTGGGACTGTGCTAG,0.254 z-score
TCATCTCTTATTCTAACACTGTGCTAG,0.978 z-score
TCACGTTTACATTTTCCACTGTGCTAG,0.804 z-score
GACGGTTTCCTTCCCCTGACGTGCTAG,1.93 z-score
GAGGGTATCGGTTTCGGGACGTGCTAG,5.85 z-score
TTAGGTCTCGGACTGGGTGAGTGCTAG,0.176 z-score
CCATTTTTCTAGTCCAGACTGTGCTAG,1.75 z-score

# Sample 5 — method: RNA Bind-n-Seq; molecule type: RNA; sample: in vitro; concentration: 365 nM; baseline: no-protein control; reading: higher = stronger binding
# Target: RNA binding protein fox-1 homolog 2, RRM domain, GST-SBP tag (RBFOX2, Homo sapiens, UniProt O43251-10, residues 100-194)
# Notes: natural RNA segment, single round, ends assumed
# Construct (chain): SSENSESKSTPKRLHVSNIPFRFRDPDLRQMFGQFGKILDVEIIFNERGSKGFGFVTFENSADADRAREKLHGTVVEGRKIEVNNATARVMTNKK
Strand,RBNS enrichment (R)
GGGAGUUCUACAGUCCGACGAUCUUUCCCAAAGUUUCUGACUUUGUGGUUUACCCCCUUCACCUUCCAGGGACGCAGUUGUUACGAGGUUAGACGUGGCAGCUCUGUGCAGUGUUUGAGCCUACAGUGGGAUAUGGAAUUCUCGGGUGCCAA,0.381
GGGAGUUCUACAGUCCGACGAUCUUUUUUAAAGCUUACGUACUUGAAUUUUAUAUCAGGAAGAUGGUUUUUGAGCCUGUUCCUUACCCUUGACUAUAGUUGGUAGUUGGUCUCUUUUUUCCCCCUAGGGGAGGUGGAAUUCUCGGGUGCCAA,0.337
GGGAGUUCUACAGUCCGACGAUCAUGUUAUGUCUGAUGUUGUGUUUUUAGAGCUGUGAAAAGUCUGAAAAAUUUCAAGGGGUAUUAUUUAAAUGAUGAUUAUCUGGCUGAAUUAUGUGUGAGCUAGAAUCUAGUGGAAUUCUCGGGUGCCAA,0.738
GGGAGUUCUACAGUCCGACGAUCAAUAACAAACAUUGUCCUCUCCAGAAAGUCCUUUCUUUCUCCAUACUGUAGUCCUAUUGAGAAGACAUUUCGUCUCUGAGAAAAAAGGAUGGAACUAUGGGUUCUCUUCGUGGAAUUCUCGGGUGCCAA,0.351
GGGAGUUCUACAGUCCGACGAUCGAAGGCAAGCCAACCUUAGCUACAAUCCUACCUUUUGAUAAAAUGUUCCUUUUGACAAUAUACACGGAUUAUUAUUUGUACUUUGUUUUUCCAUGUGUUUUGCUUUUAUCUGGAAUUCUCGGGUGCCAA,0.916
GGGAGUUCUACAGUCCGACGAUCUCUUUGGGAACUGUCCUCUUGGUGGAUCCGGGUUCCUGACCCCACCUCCCCCCAGUUGCCCCUCAGUCGAAGCACUGUGCCAUGUCCUGCUGGGAAUUUUCUGCCAUGCAUGGAAUUCUCGGGUGCCAA,0.378
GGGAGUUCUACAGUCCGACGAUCGUGUUCGGGGGCCUCUGGCUGCUGAAGGAUUCGGUCUACCACGGAGGGCUGUGCUGUUAGGCUGCAUCCCACUCAAAAUACAGGAAAAGCACGAAUCAUGAUUCUGCUUUUGGAAUUCUCGGGUGCCAA,0.214
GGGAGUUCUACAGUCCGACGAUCAUGUCUCUGUCUUAUCAAUAAUGAGGCUUAAAAAAUACUGGAUUUGAAUGGCUGCCGUUUUUUCAAAGCAAUAUGAAUUUGAUGAGUUUGUUUUAUGCCAUUAGGUGGCGUGGAAUUCUCGGGUGCCAA,1.32
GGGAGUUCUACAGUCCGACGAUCUAGAAAUACCUUUCCUGUAGCUUUUAUAGUCAUUGUUUUUCAAAGACGAUAUACCAGCCCUCACCCAGGUUUUAAAAAAGCACUGGUAGGCAUAGAAUAGGUGCUCAGUAUGGAAUUCUCGGGUGCCAA,0.285
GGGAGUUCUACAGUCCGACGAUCACUAUCCUAAGCAAUGUGUGCUUGCCUGUUAGUGAGGGUGUAGGUUGAGCCCAAGUGGUGGAGUCCUAUUCAUGGGCCUCAGUGCAUGCUGGCUUUAGCCCCAUGCUCAGUGGAAUUCUCGGGUGCCAA,1.62
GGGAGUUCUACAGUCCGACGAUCGUUCAUUUGUCAUAUAGGCACUGGGUUGUUUCUAUAUCAUCAUCGUCUAUAAACUAGCUUUAGGAUAGUGCCAGACAAACAUAUGAUAUCAUGGUGUAAAAAACACACACUGGAAUUCUCGGGUGCCAA,0.487
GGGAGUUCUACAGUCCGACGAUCGAAUAUAUUUUUGUUAUGGCUGGUUACCCCAGCUCUUUUUCCCCUUGUGUGUGUGGUUCAAGUGUGCACUGGGAGGCAACUGAGGUCUGAAGCCAACCAUAUGCUCCUGCUGGAAUUCUCGGGUGCCAA,0.413

# For quick reference, copied from above (sample 4):
Strand,log fluorescence
ACCATTTTGTTTTTCATTATGTGCTAG,1.58 z-score
GACGTACTGCTTATCCTGACGTGCTAG,0.0384 z-score
TTAGGTTTCCTACTGCCTTAGTGCTAG,1.06 z-score
TTAGGTCTCCTTATCGTTTAGTGCTAG,0.499 z-score
ATTTTTTAGCTTCTCAATTAGTGCTAG,0.742 z-score
TAATATATATATTGTTAGTGTGTGCTA,0.378 z-score
AGTGTTATAATATTATTGCAGTGCTAG,-0.115 z-score
TCTTTTTTTTCTTTAAAAGTGTGCTAG,1.3 z-score
TCATTTTTCACTATTGCACTGTGCTAG,1.37 z-score
TCATAATTCTTTGCTCATACTGTGCTA,0.398 z-score
GACGGACTGGGGTTTCGAGACGTGCTA,1.67 z-score
